{"data": "Published values of several laboratories", "note": "Values joined by “and” are separate records of one study, mostly repeats; a detail may differ. ± gives the spread as reported."}
{"Compound": "CC(=O)[O-].O.O.O.O.[Co+2].[O-]c1ccc(Br)cc1C=NCCN1CCOCC1", "test": "nitric oxide scavenging", "setting": "200 µM", "endpoint": "inhibition", "value": "40.8%"}
{"Compound": "COc1cc(O)ccc1CCC(c1ccc(O)cc1)c1cc2c(c(C)c1O)OC(c1ccc(O)cc1)CC2 (mixture of isomers)", "test": "measured: 4-HDHA", "system": "human whole blood", "setting": "3 µM, added: Escherichia coli", "endpoint": "amount", "value": "79 ± 32 pg/mL blood"}
{"Compound": "COC1OC(C)C(OC2OC(C)C(O)C(OC3OC(C)C(OC4OC(C)C(O)C(OC5OC(C)C(OC6OC(C)C(O)C(OC7OC(C)C(OC8OC(C)C(O)C(OC9OC(C)C(OC%10OC(C)C(O)C(OS(=O)(=O)O)C%10OS(=O)(=O)O)C(OS(=O)(=O)O)C9OS(=O)(=O)O)C8OS(=O)(=O)O)C(OS(=O)(=O)O)C7OS(=O)(=O)O)C6OS(=O)(=O)O)C(OS(=O)(=O)O)C5OS(=O)(=O)O)C4OS(=O)(=O)O)C(OS(=O)(=O)O)C3OS(=O)(=O)O)C2OS(=O)(=O)O)C(OS(=O)(=O)O)C1OS(=O)(=O)O (stereo not shown)", "system": "human plasma", "setting": "128 µg/mL", "scale": "baseline: control", "endpoint": "thrombin time prolongation", "value": "1 fold"}
{"Compound": "CCCCCc1ccc(S(=O)(=O)N2CC2C(=O)OC)cc1 (stereo not shown)", "system": "mouse, Lewis lung carcinoma", "setting": "intraperitoneal, 15 mg/kg, 16 doses, day 9", "endpoint": "tumour volume", "value": "135 mm3"}
{"Compound": "CN1CCC[C@]1(C)/C=C/S(=O)(=O)NC(=O)Nc1c2c(cc3c1CCC3)CCC2", "system": "human, whole blood ex vivo", "setting": "50 mg single dose, 12 h, single ascending dose, added: LPS and ATP", "endpoint": "IL-1β inhibition", "value": "97.3%"}
{"Compound": "COC1OC(C)C(OC2OC(C)C(OS(=O)(=O)O)C(OC3OC(C)C(OC4OC(C)C(OS(=O)(=O)O)C(OC5OC(C)C(OS(=O)(=O)O)C(OS(=O)(=O)O)C5OS(=O)(=O)O)C4OS(=O)(=O)O)C(OS(=O)(=O)O)C3OS(=O)(=O)O)C2OS(=O)(=O)O)C(OS(=O)(=O)O)C1OS(=O)(=O)O (stereo not shown)", "system": "human plasma", "setting": "128 µg/mL", "scale": "baseline: control", "endpoint": "thrombin time prolongation", "value": "0.9 fold"}
{"Compound": "NC[C@@H](C(=O)Nc1ccc(-c2cn[nH]c2)cc1)c1ccccc1", "test": "tonometry", "system": "NZW rabbit, magnetic bead-induced ocular hypertension", "setting": "ocular, 0.1%, 24 h", "endpoint": "IOP", "value": "36.9 mmHg"}
{"Compound": "O=C(N[C@@H](Cc1ccc(OCCCCC2CCNCC2)cc1)C(=O)O)c1nc2ccccc2o1.O=C(O)C(F)(F)F", "test": "platelet aggregation, inhibitor, impedance aggregometry", "system": "human, whole blood, 1:1 saline", "setting": "25 nM, 6 min, 37 °C, added: ADP 20 µM", "scale": "higher = more aggregation", "endpoint": "aggregation impedance AUC", "value": "35.3 a.u. and 42.2 a.u. and 46.5 a.u. and 31.8 a.u. and 37.3 a.u."}
{"Compound": "S=C(S)OC1CC2CC1C1CCCC21 (stereo not shown)", "test": "hot plate", "system": "male ICR-CD1 mice", "setting": "icv, 75 µg/animal, 15 min", "endpoint": "maximum possible effect", "value": "18.4% and 15.1% and 14.6% and 16.7%"}
{"Compound": "COC1OC(C)C(OC2OC(C)C(OS(=O)(=O)O)C(OC3OC(C)C(OC4OC(C)C(OS(=O)(=O)O)C(OC5OC(C)C(OC6OC(C)C(OS(=O)(=O)O)C(OC7OC(C)C(OC8OC(C)C(OS(=O)(=O)O)C(OC9OC(C)C(OS(=O)(=O)O)C(OS(=O)(=O)O)C9O)C8O)C(OS(=O)(=O)O)C7O)C6O)C(OS(=O)(=O)O)C5O)C4O)C(OS(=O)(=O)O)C3O)C2O)C(OS(=O)(=O)O)C1O (stereo not shown)", "system": "human plasma", "setting": "128 µg/mL", "scale": "baseline: control", "endpoint": "thrombin time prolongation", "value": "1 fold"}
{"Compound": "O=C(N[C@@H](Cc1coc2ccccc12)B(O)O)[C@@H]1C[C@H]2CC[C@@H]1O2", "test": "tumour growth", "system": "U266B1, mouse, U266B1 multiple myeloma xenograft", "setting": "oral, 1 mg/kg twice weekly", "endpoint": "T/C", "value": "-57%"}
{"Compound": "COC1OC(C)C(O)C(OC2OC(C)C(O)C(OC3OC(C)C(O)C(OC4OC(C)C(O)C(OC5OC(C)C(O)C(OC6OC(C)C(O)C(OC7OC(C)C(O)C(OC8OC(C)C(O)C(OC9OC(C)C(O)C(OC%10OC(C)C(O)C(OC%11OC(C)C(O)C(OC%12OC(C)C(O)C(OS(=O)(=O)O)C%12OS(=O)(=O)O)C%11OS(=O)(=O)O)C%10OS(=O)(=O)O)C9OS(=O)(=O)O)C8OS(=O)(=O)O)C7OS(=O)(=O)O)C6OS(=O)(=O)O)C5OS(=O)(=O)O)C4OS(=O)(=O)O)C3OS(=O)(=O)O)C2OS(=O)(=O)O)C1OS(=O)(=O)O (stereo not shown)", "system": "human plasma", "setting": "128 µg/mL", "scale": "baseline: control", "endpoint": "thrombin time prolongation", "value": "1 fold"}
{"Compound": "Cc1ccc(N(O)/N=N/c2ccc(S(=O)(=O)Nc3nccs3)cc2)cc1", "test": "DPPH scavenging, absorbance", "setting": "120 µg/mL", "endpoint": "inhibition", "value": "30.2%"}
{"Compound": "COC1CN([C@H]2CC[C@H]([C@@]3(C)Oc4c(Cl)cc(C(=O)NCc5c(SC)cc(C)[nH]c5=O)c(C)c4O3)CC2)C1", "test": "RNA-seq, measured: MAGI2", "system": "human, whole blood", "setting": "dose not given, 24 h", "scale": "baseline: pretreatment baseline", "endpoint": "log2 fold change", "value": 1.74}
{"Compound": "COC1OC(C)C(OS(=O)(=O)O)C(OC2OC(C)C(OS(=O)(=O)O)C(OS(=O)(=O)O)C2O)C1O (stereo not shown)", "system": "human plasma", "setting": "128 µg/mL", "scale": "baseline: control", "endpoint": "thrombin time prolongation", "value": "0.9 fold"}
{"Compound": "COc1cc2c(NC3CCN(C(C)C)CC3)cc(N3CCOCC3)nc2cc1OCCCN1CCCC1", "test": "TMT quantitative proteomics, measured: ENO1", "system": "5xFAD mice, hippocampus", "setting": "dose not given", "endpoint": "normalised protein abundance", "value": "0.0634 and -0.00519 and 0.0726 and 0.0551 and 0.0423 and 0.0674 and 0.0199"}
{"note": "For quick reference, copied from above:"}
{"Compound": "COc1cc2c(NC3CCN(C(C)C)CC3)cc(N3CCOCC3)nc2cc1OCCCN1CCCC1", "test": "TMT quantitative proteomics, measured: ENO1", "system": "5xFAD mice, hippocampus", "setting": "dose not given", "endpoint": "normalised protein abundance", "value": "0.0634 and -0.00519 and 0.0726 and 0.0551 and 0.0423 and 0.0674 and 0.0199"}
{"Compound": "COc1cc(O)ccc1CCC(c1ccc(O)cc1)c1cc2c(c(C)c1O)OC(c1ccc(O)cc1)CC2 (mixture of isomers)", "test": "measured: 4-HDHA", "system": "human whole blood", "setting": "3 µM, added: Escherichia coli", "endpoint": "amount", "value": "79 ± 32 pg/mL blood"}
